Assay results pooled from the literature.
Compare with care: the assays were run in different laboratories.
Organism: Enterococcus faecalis

The MIC of `Cc1ccc2[nH]c3c(c2c1)CCCC3NCCc1ccc(O)cc1` (stereo not drawn) is reported as 16 µg/mL (broth microdilution; JH2-2).
`CC[C@H](C)[C@H](NC(=O)[C@H](Cc1c[nH]c2ccccc12)NC(=O)[C@H](Cc1ccc(O)cc1)NC(=O)[C@H](CCCCN)NC(=O)[C@H](CC(C)C)NC(=O)[C@H](CO)NC(=O)[C@@H](N)Cc1ccccc1)C(=O)N[C@@H](CCCNC(=N)N)C(=O)N[C@@H](Cc1ccc(O)cc1)C(=O)N[C@@H](CCCCN)C(=O)N[C@@H](CCCNC(=N)N)C(=O)N[C@@H](CCC(N)=O)C(=O)NCC(=O)N[C@@H](C)C(=O)N[C@@H](C)C(=O)N[C@@H](CCCNC(=N)N)C(=O)N[C@@H](Cc1ccccc1)C(N)=O` gave an MIC of greater than 100 µM (broth dilution; KCTC 3511).
The MIC of `N=C(N)NCCC[C@H](NC(=O)[C@H](CCCNC(=N)N)NC(=O)[C@H](CCCNC(=N)N)NC(=O)[C@H](CCC(N)=O)NC(=O)[C@H](CCCNC(=N)N)NC(=O)[C@H](CCCNC(=N)N)NC(=O)[C@H](CCCCN)NC(=O)[C@H](CCCCN)NC(=O)[C@H](CCCNC(=N)N)NC(=O)CNC(=O)[C@@H](N)Cc1ccc(O)cc1)C(=O)O` is reported as greater than 128 µM (broth microdilution; drug-resistant clinical isolates, Mueller-Hinton broth; 18 to 20 h, 37 °C).
`CN[C@H](CC(C)C)C(=O)N[C@H]1C(=O)N[C@@H](CC(N)=O)C(=O)N[C@H]2C(=O)N[C@H]3C(=O)N[C@H](C(=O)N[C@H](C(=O)N[C@@H](CCCNC(=N)N)C(N)=O)c4cc(O)cc(O)c4-c4cc3ccc4O)[C@H](O)c3ccc(c(Cl)c3)Oc3cc2cc(c3O[C@@H]2O[C@H](CO)[C@@H](O)[C@H](O)[C@H]2O[C@H]2C[C@](C)(NCc3ccc(OCc4cn(CC(=O)N[C@H](C(=O)N[C@@H](CCN)C(=O)N[C@H]5CCNC(=O)[C@H]([C@@H](C)O)NC(=O)[C@H](CCN)NC(=O)[C@H](CCN)NC(=O)[C@H](CC(C)C)NC(=O)[C@@H](CC(C)C)NC(=O)[C@H](CCN)NC5=O)[C@@H](C)O)nn4)c(OC)c3)[C@H](O)[C@H](C)O2)Oc2ccc(cc2Cl)[C@H]1O` has an MIC of 46 µM (broth microdilution; vancomycin-resistant).
With `CN[C@@H]1[C@H](O)[C@H](NC)[C@H]2O[C@]3(O)[C@H](O[C@@H]2[C@H]1O)O[C@H](C)C[C@H]3NC(=O)CNC(C)(C)C` the MIC was greater than 200 µg/mL (microbial growth, broth dilution; ATCC33186).
With `CC[C@H](C)[C@H](N)C(=O)N[C@@H](CCCNC(=N)N)C(=O)N[C@H](C(=O)N[C@@H](Cc1c[nH]c2ccccc12)C(=O)N[C@@H](Cc1ccccc1)C(=O)N[C@H](C(=O)N[C@@H](CCCCN)C(=O)N[C@H](C(=O)N[C@@H](CCCNC(=N)N)C(=O)N[C@@H](CCCCN)C(=O)N[C@@H](CCSC)C(=O)N[C@@H](CCCCN)C(=O)N[C@@H](C)C(=O)N[C@H](C(=O)N[C@@H](Cc1ccc(O)cc1)C(=O)N[C@@H](Cc1c[nH]cn1)C(=O)N[C@H](C(N)=O)[C@@H](C)O)[C@@H](C)CC)C(C)C)[C@@H](C)CC)C(C)C` the MIC was 100 µM (broth dilution; KCTC 3511).
For `CN[C@@H]1[C@H](O)[C@H](NC)[C@H]2O[C@]3(O)[C@H](O[C@@H]2[C@H]1O)O[C@H](C)C[C@H]3NC(=O)Cc1ccccc1`, the MIC was greater than 200 µg/mL (microbial growth, broth dilution; ATCC33186).
`CC[C@H](C)[C@H](NC(=O)[C@H](CCCNC(=N)N)NC(=O)[C@@H]1CCCN1C(=O)[C@H](CCCNC(=N)N)NC(=O)[C@H](Cc1ccccc1)NC(=O)[C@H](Cc1c[nH]cn1)NC(=O)[C@H](CCCNC(=N)N)NC(=O)[C@H](CC(C)C)NC(=O)[C@H](CCCCN)NC(=O)CNC(=O)[C@H](CC(C)C)NC(=O)[C@H](Cc1ccccc1)NC(=O)[C@H](CCCNC(=N)N)NC(=O)CNC(=O)[C@H](Cc1ccccc1)NC(=O)[C@H](CCCNC(=N)N)NC(=O)CNC(=O)[C@H](CCCNC(=N)N)NC(=O)[C@H](CCC(N)=O)NC(=O)[C@@H](NC(=O)[C@@H](N)CC(C)C)[C@@H](C)CC)C(=O)N[C@@H](CCCCN)C(=O)N[C@@H](Cc1ccccc1)C(=O)N[C@@H](CCCCN)C(=O)NCC(=O)N[C@@H](CCCCN)C(=O)N[C@@H](C)C(=O)NCC(=O)N[C@@H](Cc1c[nH]c2ccccc12)C(=O)N[C@H](C(=O)N[C@H](C(=O)NCC(=O)O)C(C)C)[C@@H](C)O` gave an MIC of 4.39 µg/mL (ATCC 29212).
With `C#CCNC(=O)[C@H]1NC(=O)[C@H]2NC(=O)[C@H](NC(=O)[C@@H]3NC(=O)[C@H](CC(N)=O)NC(=O)[C@H](NC(=O)[C@@H](CC(C)C)NC)[C@H](O)c4ccc(c(Cl)c4)Oc4cc3cc(c4O[C@@H]3O[C@H](CO)[C@@H](O)[C@H](O)[C@H]3O[C@H]3C[C@](C)(N)[C@H](O)[C@H](C)O3)Oc3ccc(cc3Cl)[C@H]2O)c2ccc(O)c(c2)-c2c(O)cc(O)cc21` the MIC was 11 µM (broth microdilution; vancomycin-resistant).

For quick reference, copied from above:
`CC[C@H](C)[C@H](NC(=O)[C@H](Cc1c[nH]c2ccccc12)NC(=O)[C@H](Cc1ccc(O)cc1)NC(=O)[C@H](CCCCN)NC(=O)[C@H](CC(C)C)NC(=O)[C@H](CO)NC(=O)[C@@H](N)Cc1ccccc1)C(=O)N[C@@H](CCCNC(=N)N)C(=O)N[C@@H](Cc1ccc(O)cc1)C(=O)N[C@@H](CCCCN)C(=O)N[C@@H](CCCNC(=N)N)C(=O)N[C@@H](CCC(N)=O)C(=O)NCC(=O)N[C@@H](C)C(=O)N[C@@H](C)C(=O)N[C@@H](CCCNC(=N)N)C(=O)N[C@@H](Cc1ccccc1)C(N)=O` gave an MIC of greater than 100 µM (broth dilution; KCTC 3511).
